Published values pooled from the literature.
Each numbered part is a random draw from the data of one study; scales do not carry over between parts.

Block 1 — method: universal PBM; molecule type: double-stranded DNA, one strand shown; matrix: in vitro; tested at: 600 nM; reading: higher = stronger binding; measurement: E-score
Target: Sal-like protein 4, full length isoform A (SALL4, Homo sapiens, UniProt Q9UJQ4, residues 1-1053)
Chain of UniProt Q9UJQ4 (whole entry, looked up): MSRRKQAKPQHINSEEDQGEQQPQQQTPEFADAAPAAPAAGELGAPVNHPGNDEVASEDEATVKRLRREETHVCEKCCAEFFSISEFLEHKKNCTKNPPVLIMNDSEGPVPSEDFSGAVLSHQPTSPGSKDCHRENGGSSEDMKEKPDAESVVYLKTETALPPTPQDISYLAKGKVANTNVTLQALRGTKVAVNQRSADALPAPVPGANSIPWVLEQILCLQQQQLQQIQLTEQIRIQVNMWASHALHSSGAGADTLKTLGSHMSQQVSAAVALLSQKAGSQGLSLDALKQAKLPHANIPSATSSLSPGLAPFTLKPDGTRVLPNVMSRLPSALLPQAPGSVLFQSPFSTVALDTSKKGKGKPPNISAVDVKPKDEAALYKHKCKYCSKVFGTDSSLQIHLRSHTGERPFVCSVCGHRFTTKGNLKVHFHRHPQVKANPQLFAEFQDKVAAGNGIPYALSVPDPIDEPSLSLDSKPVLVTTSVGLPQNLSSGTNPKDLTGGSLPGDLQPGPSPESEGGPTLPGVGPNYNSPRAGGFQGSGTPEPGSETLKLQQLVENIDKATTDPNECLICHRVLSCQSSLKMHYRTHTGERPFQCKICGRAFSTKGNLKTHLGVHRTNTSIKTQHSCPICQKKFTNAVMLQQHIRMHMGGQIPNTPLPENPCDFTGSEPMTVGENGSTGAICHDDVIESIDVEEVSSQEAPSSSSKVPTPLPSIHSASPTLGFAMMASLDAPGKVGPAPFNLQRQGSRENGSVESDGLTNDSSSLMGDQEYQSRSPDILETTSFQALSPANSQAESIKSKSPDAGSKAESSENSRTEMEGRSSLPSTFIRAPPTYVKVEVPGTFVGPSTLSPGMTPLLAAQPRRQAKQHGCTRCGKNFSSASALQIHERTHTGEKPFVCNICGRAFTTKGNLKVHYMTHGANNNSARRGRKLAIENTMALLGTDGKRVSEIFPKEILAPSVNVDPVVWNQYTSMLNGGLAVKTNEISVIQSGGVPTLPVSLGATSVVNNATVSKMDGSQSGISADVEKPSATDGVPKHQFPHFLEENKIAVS
Notes: 8-mer, flanks averaged, mean of replicates
ATTACCGG: -0.07
CGCCGTCC: -0.263
GACACCCA: -0.196
ACTCTAAT: 0.195
AATTTACT: 0.309
CCCTGGGA: -0.343
AACAGGCC: -0.26
AATCAGAC: 0.0742
CCTTGACA: -0.0793
AGGGGAAA: -0.016
CAGAATCC: -0.214
GTCTGAAC: -0.0761
ATGCCTTA: 0.062
GGGAATTA: 0.225
CGGAATGC: -0.187
AGCGTTCC: -0.0866
GGGGGATA: -0.0475
GTTTTGTA: 0.216
CGGCGATC: -0.315
CTGCAAAG: -0.153
TATGGTCA: 0.178

Block 2 — method: RNA Bind-n-Seq; molecule type: RNA; matrix: in vitro; tested at: not given; relative to: input RNA pool; reading: higher = stronger binding; measurement: bound/input enrichment
Target: RING finger protein unkempt homolog, zinc fingers 1-6, GST-SBP tag (UNK, Homo sapiens, UniProt Q9C0B0, residues 30-357)
Chain of UniProt Q9C0B0 (30-357, looked up): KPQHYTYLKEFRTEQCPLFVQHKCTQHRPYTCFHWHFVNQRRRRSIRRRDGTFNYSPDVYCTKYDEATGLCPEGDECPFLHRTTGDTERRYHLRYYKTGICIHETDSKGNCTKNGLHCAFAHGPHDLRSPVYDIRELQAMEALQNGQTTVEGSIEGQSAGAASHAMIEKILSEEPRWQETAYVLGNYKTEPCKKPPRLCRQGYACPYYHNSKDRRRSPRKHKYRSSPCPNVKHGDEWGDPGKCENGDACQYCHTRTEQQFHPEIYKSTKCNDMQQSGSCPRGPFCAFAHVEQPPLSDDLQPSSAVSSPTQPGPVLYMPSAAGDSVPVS
Notes: RNA with constant flanks, human-mouse chimeric sites, ends assumed
Shared flanks, not repeated: GGGAGUUCUACAGUCCGACGAUC … CAACAGAGGAUUGAGCAUCA
GUGUCCUUUCAACUUAAUAAAUCACUGAGGCAUCUCUACUGUUCUGUGAGCAUCAGGACUGUAGCGCUGUGUCACCACAGAUGAGAACAGAAGCAGCCUUUCUGUGGAGGGUGGGAAUGA: 0.308 ratio
GAUCCACAGUGGUCUGAGGAACAGCUGAUUGCUGCAAAAUUCUGUUUUGCUGGCCUUGUUAUAGGGCAGACUGAAGUGGACAUCAUGAGUCAUGCUACACAAGCUAUUUUUGAAAUUCUG: 0.205 ratio
UACUCAACUUUCUUGCCACAUUUUGAAUUCCAAGACAUUAUUCCUCCAGAUGACUUCCUAACGAGUGAUGAAGAGCAAGAUUCCGUUUUAUUUGGAACUAUGAGAGGACAAGUUGUUGGA: 0.189 ratio
AGCACAACCCCAGCAAAGCUAAGAAAUCCUUGUACAAGUGAACAGAACUGCACCAGCCCAUUUAGCUACAAAAAUGUGCUUAGUCUUACUGACAGAGGAGAAGUAUUCAAUGAACUUGUU: 0.757 ratio
GACUUGGGACCGUCCUGGGCUAGUACAAAUAGCGGCAGUGGAGGCUCGAGAGGAAAGUUUGUUAGUGGAGGCAGUGGUAGAGGCCGUCAUGUACGGUCCUUUACUCGUAAAAAUCCUUCU: 0.297 ratio
UUGUGCAAUGAUGCUUGAGAUGGUUUUUGCAAAAGCAGAAAUCGCUGCAAGGUCAUUACAAUAGAUAAAAGUGGUAUUUUAAACCUUUGAAAUAAAUGGAUGUAACUGUACCUUGGUACA: 0.414 ratio
GUUGCCAGGUUCCGGUGCCGUUGGGCUCGGUUCUCUCCUGAGCUACGUGUCUCUACGUUUUAGGUGUGCCAUCCAACAAACAUGGAUCAGGUAAUGCAGUUUGUGGAGCCCAGCCGGCAG: 0.108 ratio
GUGACUGGUGUUAAGAUUUCCCCUCAGCAAAGAAGUGCAGUAGUCACAAUAAUCCCUUCUGUGGUGAGUGCCAGUCAGAUAAAAGAGCUGGUCCCAGACCUCAGUUUAGACAUGGGAACU: 0.322 ratio
AACAGAUUUCUCAAGCACAUUCCAAGCGAGAAUGCUGGGGUGAUCAUAAUUACCCACGUGCCUUCUGACUGAGCUUUAAUGCUGUUCCAUGUUACAUCUUUCCUUCACUCCAGAAUUGUU: 0.132 ratio
GACUUUGGGACUGGUCCUCGUAAUGCAGCCUUCUAUAGCCCUCAUGGACAUAUAUUAGUGCUGGCUGGAUUUGGAAAUCUGAGGGGACAAAUGGAAGUAUGGGAUGUUAAAAACUACAAG: 0.487 ratio
GAUCUCGGGCCCUCCCCAGGGGCCUCCUUUCGUAUAGUCACUGCUUCUGCAUCAGAUAUUUUUAGCUGCAACUCCCUACUGGGUGGGGCACCCAUUUCAGGCAGAAGGUUUUGGUACCCU: 0.334 ratio

Block 3 — method: RNA Bind-n-Seq; molecule type: RNA; matrix: in vitro; tested at: 365 nM; relative to: no-protein control; reading: higher = stronger binding; measurement: RBNS enrichment (R)
Target: RNA binding protein fox-1 homolog 2, RRM domain, GST-SBP tag (RBFOX2, Homo sapiens, UniProt O43251-10, residues 100-194)
Notes: natural RNA segment, single round, ends assumed
Shared flanks, not repeated: GGGAGUUCUACAGUCCGACGAUC … UGGAAUUCUCGGGUGCCAA
Residues (chain): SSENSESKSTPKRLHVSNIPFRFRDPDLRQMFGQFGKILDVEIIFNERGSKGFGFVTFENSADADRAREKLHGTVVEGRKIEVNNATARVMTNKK
UAGAGUAAGCCUGACAUCCUCCUCCAUUCUCAAGACUCUCUCUCUUUCAUUUGGUACCCUGUACCCCAGUGCCUCUGCGUCGCCUCCUUCUUGUGUGCCUUCUGAGCUGU: 0.567
UCUAUGAGCAGCUGCUGUAACAUACUCAUCAACUAUGAUAGACUUAACACUUGUUACCUAAUGAACAAGGAGGAUGUGCAUUUCGGGUUUCUUUUGAUAUUCGUGGAGGU: 0.488
UCCUUCCCUCCCCGCAACCACCCCAGGCUCCCCUGGGAGGCUGCAGUUGUGGUACACGUCCCCGGUGCUGGGUUGGCCGUGACUCGGGGGCGGGGCGAUCGGGUCUCAGC: 0.385
GAGACACGGGCCACCAUGAACUUGGCACUGGCUGGUGACAUCCUUGCUGCAGGGCAGGAUGCCCACUGUCAGCUCCUGCGCUUCCAGGCACAUCAACAGCAGGGCAACAA: 0.215
UUACUGCUACUUUCAUGUUGCUUUCUAGAAAACAGCAUUUCAUUCCAAAAUAACUAGGAUCUGCAUUUAGAACAAGAAUCAUUAUUUGUCCUGACCUUUUCAGUCCUACA: 0.368
GGUGGUUAAACGGGUAACAGAAAUACUGUAUUGUGAGAAAUGACACAACAAAAGCCGGCAGGCAUCUUUAAGGGCUAUGCCUAGGGAGACUACUAACAUGGAGAGAAUGC: 0.885
GUUUGGGGCUAAGAAGUUCACCAGCCCUGAGCCAUGGCGGCCCCUCAGCCUGCCUGAAGAGAGGAAACUGGCGAUCUCCCAGGGCUCUCUGGACCAUACGCGGAGGAGUU: 0.364
AGAAAGAGAAAGAGAGCGGCUGCUGUAGGGACAGCUCUCUGCCUCUCCUCUCCUGGCUCUACCAGUAAGACAAGAUUUAUUUAAUUUUAUUAUUUAAUCUGCACUGAUUU: 0.516
GAAGAGAGGGACACUGUCGUGUCAGUAGCCGCAGGGUCCCCUUUAAGAUGUGUAUAUCGACACUAGGUCAGAAAGUGUAUGCGUUAUAAUAAAGUUCUGGUUCUAACUCC: 0.575
AACCCAAAAAUUACAGUACCAAAUGAUUGACUCAGGAUUGUUUUUCCCAUAUUGAUAUGCUGGCAAUAUAGGAUGGUAUGUGGUGAAGAAGACUAAUGCAGGUGGUUGAA: 2.01
UACCUCUUUUAGCCUAGAUACAUGGAUUCUUUUCAAAUCAGGAAAGAUUAGAAAAGGAACCCAAAAAACCCUUUAACAGUGUGAAUCUUUAUAGUAUUUGAAAAUGAGAA: 0.604
GUUCACAAAGAGCAUUAAGAAAGCUGCGGUGGUCUGAGCAACAUAGCCCAAAGGGCUGAGCCUCCUGGCCUGCCUGCCCGCCCACCCUGGGAGUCCCAGUGGUGAGGCUC: 0.766

Block 4 — method: aptamer microarray, sandwich; molecule type: DNA with 2'F-ANA; matrix: in vitro; tested at: 200 nM; added: Cy3 exosite-II aptamer, 400 nM; reading: higher = stronger binding; measurement: mean fluorescence intensity; oligonucleotide: GGTTGGTGTGGTTGG
Target: Prothrombin, mature alpha-thrombin (F2, Homo sapiens, UniProt P00734)
Notes: whole 15-mer aptamer, many near background
2'F-ANA at 1 3 6 7 8 10 11: 76.7 a.u.
2'F-ANA at 4 6 7 8 9 10 12 13 15: 113 a.u.
2'F-ANA at 1 2 3 4 6 7 9 10 11 12 13 14: 106 a.u.
2'F-ANA at 2 3 5 6 9 13 14 15: 66 a.u.
2'F-ANA at 4 6 12 14 15: 128 a.u.
2'F-ANA at 1 4 5 6 7 8 12 14: 60.1 a.u.
2'F-ANA at 1 4 5 7 9 11 15: 52.2 a.u.
2'F-ANA at 1 5 6 7 8 9 10 11 12: 55.4 a.u.
2'F-ANA at 2 7 11 12 14 15: 195 a.u.
2'F-ANA at 1 3 4 8 14: 82.5 a.u.
2'F-ANA at 3 4 7 8 10 11 13 14: 188 a.u.
2'F-ANA at 1 5 6 7 8 9 10 12 13 14 15: 90.3 a.u.
2'F-ANA at 1 2 5 6 7 8 10 14 15: 55.2 a.u.
2'F-ANA at 1 2 4 5 6 7 8 9 10 13 14 15: 51.5 a.u.
2'F-ANA at 1 7 8 10 11 12 14 15: 48.3 a.u.
2'F-ANA at 1 2 7 9 10 11 14: 48.3 a.u.
2'F-ANA at 1 2 3 5 10 12 14: 44.7 a.u.
2'F-ANA at 2 3 6 8 12 15: 1030 a.u.
2'F-ANA at 1 2 3 4 5 6 8 9 12 14: 50.4 a.u.
2'F-ANA at 3 4 7 8 10 11 12 14 15: 195 a.u.
2'F-ANA at 2 3 4 6 10 11 13 14: 132 a.u.
2'F-ANA at 1 3 4 6 10 11 12 14: 53.3 a.u.
2'F-ANA at 1 3 6 9 11 13: 185 a.u.
2'F-ANA at 1 4 8 9 10 13 14: 51 a.u.
2'F-ANA at 2 4 6 7 11: 211 a.u.

Block 5 — method: RNAcompete; molecule type: RNA; matrix: in vitro; tested at: 20 nM; notes: 7-mer, probes averaged, single round; relative to: mean of 7-mers; reading: higher = stronger binding; measurement: 7-mer Z-score
Target: PABPC1L2, full length, GST fusion (mouse, UniProt A0ABA7IW68)
Construct (chain): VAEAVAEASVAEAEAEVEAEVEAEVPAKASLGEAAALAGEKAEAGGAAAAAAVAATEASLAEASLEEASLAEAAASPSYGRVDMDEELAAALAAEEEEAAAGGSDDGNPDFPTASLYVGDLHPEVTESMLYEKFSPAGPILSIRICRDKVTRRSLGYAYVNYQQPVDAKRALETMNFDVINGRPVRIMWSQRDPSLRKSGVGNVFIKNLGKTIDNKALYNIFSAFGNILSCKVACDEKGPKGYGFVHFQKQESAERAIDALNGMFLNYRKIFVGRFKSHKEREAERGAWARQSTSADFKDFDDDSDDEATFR
GGGGCGA: 0.606
AACGAAG: 0.387
CUUUACC: -0.267
GCGUAGU: -0.175
CACUUCG: -0.36
GGGACCG: 0.0189
GAUCAGC: -0.229
AUAACCG: -0.106
CUUAACC: -0.402
GAGUGCA: 0.046
UUGUGGA: 0.108
AUGGUGA: 0.0134
UAGUAUG: -0.211
AGGCCUU: -0.289
GUUACGU: -0.315
CGCUGUA: -0.309
ACGGGGU: -0.115
GCCUUAG: -0.336
GCCCAGC: -0.362

Repeated from above (block 5):
GCCCAGC: -0.362
AACGAAG: 0.387
GAGUGCA: 0.046
CUUAACC: -0.402
GCCUUAG: -0.336
GUUACGU: -0.315
CGCUGUA: -0.309
CACUUCG: -0.36
GAUCAGC: -0.229
GGGGCGA: 0.606
GGGACCG: 0.0189
UAGUAUG: -0.211
AUAACCG: -0.106
